Assay results of several laboratories.
Several values in a cell are separate wells, animals, samples, runs or records. Numbers after ± are the reported error.

Structure (SMILES) | target or system | test system | conditions | how to read | quantity | value
CSCC[C@H](NC(=O)CNC(=O)[C@H](CCCCN)NC(=O)[C@H](CC(C)C)NC(=O)[C@@H]1CCCN1C(=O)[C@H](CO)NC(=O)[C@H](Cc1c[nH]cn1)NC(=O)[C@H](Cc1c[nH]c2ccccc12)NC(=O)[C@H](CCCNC(=N)N)NC(=O)[C@H](CC(C)C)NC(=O)[C@H](CCCNC(=N)N)NC(=O)[C@H](Cc1c[nH]c2ccccc12)NC(=O)[C@H](CS)NC(=O)CCCCCNC(=O)CN1CCN(CC(=O)O)CCN(CC(=O)O)CCN(CC(=O)O)CC1)C(=O)O [copper-64 labelled] |  | C57BL/6J mice, B16-F10 tumour, brain | intravenous, 1.85 MBq, 0.5 h |  | tissue uptake | 0.22 %ID/g
C=C/C=C/C[C@@H](C)[C@@H](O)[C@H]1C(=O)N[C@@H](CC)C(=O)N(C)CC(=O)N(C)[C@@H](CC(C)C)C(=O)N[C@@H](C(C)C)C(=O)N(C)[C@@H](CC(C)C)C(=O)N[C@@H](C)C(=O)N[C@H](C)C(=O)N(C)[C@@H](CC(C)C)C(=O)N(C)[C@@H](CC(C)C)C(=O)N(C)[C@@H](C(C)C)C(=O)N1C |  | Wistar Kyoto rat, male, plasma | ip, 0.5 mg/kg/day, day 18 |  | plasma Mg2+ | 0.8 ± 0.04 mmol/L
CC(C)[C@@H]1NC(=O)CNC(=O)[C@H](CC(N)=O)NC(=O)[C@H](CCCNC(=N)N)NC(=O)[C@H](Cc2ccc(O)cc2)NC(=O)[C@H](C(C)C)NC(=O)[C@@H](NC(=O)[C@@H](NC(=O)[C@H](CC(N)=O)NC(=O)[C@H](Cc2c[nH]c3ccccc23)NC(=O)[C@H](C)NC(=O)[C@H](Cc2ccccc2)NC(=O)CNC(=O)[C@H](CCCCN)NC(=O)[C@H](Cc2ccccc2)NC(=O)[C@H](Cc2ccccc2)NC(=O)[C@H](CCCCN)NC(=O)OCC2c3ccccc3-c3ccccc32)C(C)C)CSSC[C@@H](C(=O)N[C@@H](Cc2c[nH]cn2)C(=O)N[C@@H](CCCNC(=N)N)C(=O)N[C@@H](CCCNC(=N)N)C(=O)N[C@@H](C)C(=O)N[C@@H](CC(N)=O)C(N)=O)NC(=O)[C@H](C(C)C)NC(=O)[C@H](CCCNC(=N)N)NC1=O |  | ICR mouse | ip, 5 mg/kg | direction not given | breathing score | 0
CCCC[C@H]1C(=O)N(C)[C@@H](CCCC)C(=O)N[C@@H](CCCCNC(=S)Nc2ccc(CN3CCN(CC(=O)O)CCN(CC(=O)O)CC3)cc2)C(=O)N[C@H](C(=O)NCC(N)=O)CSCC(=O)N[C@@H](Cc2ccc(O)cc2)C(=O)N(C)[C@@H](C)C(=O)N[C@@H](CC(N)=O)C(=O)N2CCC[C@H]2C(=O)N[C@@H](Cc2cnc[nH]2)C(=O)N[C@@H](CCC(=O)O)C(=O)N2C[C@H](O)C[C@H]2C(=O)N[C@@H](Cc2c[nH]c3ccccc23)C(=O)N[C@@H](CO)C(=O)N[C@@H](Cc2cn(CC(=O)O)c3ccccc23)C(=O)N1C [fluorine-18 labelled] |  | huCD34 mice with A-375 melanoma, tumour | dose not given, 7 days, added: pembrolizumab 4 mg/kg | relative to: pretreatment baseline | change in tumour uptake | 0.47 ± 0.41 %ID/cc
CCCCCCCCCCCCCCCC(=O)N[C@@H](CCC(=O)NCCOCCOCCC(=O)NCCOCCOCCC(=O)NCCCC[C@H](NC(=O)[C@H](CC(=O)O)NC(=O)[C@H](CC(C)C)NC(=O)[C@H](Cc1ccc(O)cc1)NC(=O)[C@H](CCCCN)NC(=O)[C@H](CO)NC(=O)[C@H](Cc1ccc(O)cc1)NC(=O)[C@H](CC(=O)O)NC(=O)[C@H](CO)NC(=O)[C@@H](NC(=O)[C@H](Cc1ccccc1)NC(=O)[C@@H](NC(=O)CNC(=O)[C@H](CCC(N)=O)NC(=O)[C@@H](CO)NC(=O)[C@@H](N)Cc1c[nH]cn1)[C@@H](C)O)[C@@H](C)O)C(=O)N[C@@H](CCCNC(=N)N)C(=O)N[C@@H](CCCNC(=N)N)C(=O)N[C@@H](C)C(=O)N[C@@H](CCC(N)=O)C(=O)N[C@@H](CC(=O)O)C(=O)N[C@@H](Cc1ccccc1)C(=O)N[C@H](C(=O)N[C@@H](CCC(N)=O)C(=O)N[C@@H](Cc1c[nH]c2ccccc12)C(=O)N[C@@H](CC(C)C)C(=O)N[C@@H](CC(C)C)C(=O)N[C@@H](CC(N)=O)C(=O)N[C@H](C(=O)NCC(=O)NCC(=O)N1CCC[C@H]1C(=O)N[C@@H](CO)C(=O)N[C@@H](CO)C(=O)NCC(=O)N[C@@H](C)C(=O)N1CCC[C@H]1C(=O)N1CCC[C@H]1C(=O)N1CCC[C@H]1C(=O)N[C@@H](CO)C(N)=O)[C@@H](C)O)C(C)C)C(=O)O |  | rhesus monkey, both sexes, plasma | subcutaneous, 20 µg/kg, multiple doses, day 7 |  | AUC(0-inf) | 93.7 ± 29.2 ng·h/mL
O=C1NC2(CC2)COc2ncc(F)cc2[C@H]2COCCN2c2ccn3ncc1c3n2 |  | Sprague-Dawley rat, male, kidneys | oral, 20 mg/kg/day, 4 weeks dosing, end of recovery |  | organ-to-body weight ratio | 0.713 ± 0.069%
C/C(=N\OCCCN1CCCCC1)c1ccc(C(F)(F)F)cc1 |  | rhesus monkey | dose not given, after dosing |  | systolic blood pressure | 151 mmHg and 108 mmHg
Cc1ccc(OCCN(C)C)cc1C(=O)N[C@H](C)c1cc(-c2cccs2)nc2ccccc12 | Vero E6 |  | 125 µM |  | viability | 5.96% and 6.73%
CC[C@H](C)[C@H](NC(=O)CNC(=O)[C@H](Cc1c[nH]cn1)NC(=O)[C@H](CC(C)C)NC(=O)CNC(=O)[C@H](CC(C)C)NC(=O)[C@H](CCCCN)NC(=O)[C@H](Cc1ccccc1)NC(=O)[C@H](CC(C)C)NC(=O)[C@H](CCCCN)NC(=O)CNC(=O)[C@H](Cc1c[nH]c2ccccc12)NC(=O)[C@H](Cc1ccccc1)NC(=O)CN)C(=O)NCC(=O)N[C@@H](CC(C)C)C(=O)N[C@@H](CC(C)C)C(=O)N[C@@H](Cc1c[nH]cn1)C(=O)N[C@@H](CC(C)C)C(=O)N[C@@H](Cc1c[nH]cn1)C(=O)N[C@@H](CC(C)C)C(N)=O |  | zebrafish embryos 28 hpf, E3 medium | 1 h |  | acute toxic concentration | 5 µM
Cc1ccc(O[C@H]2CCN(C)C2)cc1C(=O)N[C@H](C)c1cc(-c2cnn(C)c2)nc2ccccc12 | Vero E6 |  | 7.812 µM |  | viability | 94.5% and 98.9% and 96.2%
CN1Cc2cc(Cl)ccc2-n2c(nnc2C2CCN(c3cccc([18F])n3)CC2)C1 |  | C57BL/6 mouse male, stomach | intravenous, 3.7 MBq, 1 min |  | tissue uptake | 3.93 ± 1.65 %ID/g
CC(C)C[C@@H](NC(=O)[C@@H](CCCCN)NC(=O)CNC(=O)CNC(=O)[C@@H]1CSSC[C@H](N)C(=O)NCC(=O)N[C@@H](CCCNC(=N)N)C(=O)N[C@@H](CCCNC(=N)N)C(=O)N[C@@H](C)C(=O)NCC(=O)NCC(=O)N[C@@H](CO)C(=O)N1)C(=O)N[C@H](C)C(=O)N[C@H](CCCCN)C(=O)N[C@H](CC(C)C)C(=O)N[C@H](C)C(=O)N[C@H](CCCCN)C(=O)N[C@H](CCCCN)C(=O)N[C@H](CC(C)C)C(=O)N[C@H](C)C(=O)N[C@H](CCCCN)C(=O)N[C@H](CC(C)C)C(=O)N[C@H](C)C(=O)N[C@H](CCCCN)C(=O)O |  | mouse, plasma | intravenous, 15 mg/kg |  | Vd | 0.0062 L
O=C(c1cc(Cc2n[nH]c(=O)c3ccccc23)ccc1F)N1CC(CNC2CC2)C1 |  | ICR mouse, female, plasma | intravenous, 20 mg/kg |  | Vss | 5.28 L/kg
COc1cnc2cccc(N3CCc4c(cc(Cn5ccnc5)cc4-c4cn(C)nc4C(F)(F)F)C3=O)c2c1 |  | CD-1 mice | intraperitoneal, 100 mg/kg once daily, day 5 |  | body weight | 30.7 ± 1.2 g
CC(C)(CCCC/C=C/CCCCCC(C)(C)C(=O)O)C(=O)O |  | ICR mice, both sexes | oral, dose not given, 7 h |  | plasma concentration | 6510 ng/mL

A few entries again:
Structure (SMILES) | target or system | test system | conditions | how to read | quantity | value
CCCC[C@H]1C(=O)N(C)[C@@H](CCCC)C(=O)N[C@@H](CCCCNC(=S)Nc2ccc(CN3CCN(CC(=O)O)CCN(CC(=O)O)CC3)cc2)C(=O)N[C@H](C(=O)NCC(N)=O)CSCC(=O)N[C@@H](Cc2ccc(O)cc2)C(=O)N(C)[C@@H](C)C(=O)N[C@@H](CC(N)=O)C(=O)N2CCC[C@H]2C(=O)N[C@@H](Cc2cnc[nH]2)C(=O)N[C@@H](CCC(=O)O)C(=O)N2C[C@H](O)C[C@H]2C(=O)N[C@@H](Cc2c[nH]c3ccccc23)C(=O)N[C@@H](CO)C(=O)N[C@@H](Cc2cn(CC(=O)O)c3ccccc23)C(=O)N1C [fluorine-18 labelled] |  | huCD34 mice with A-375 melanoma, tumour | dose not given, 7 days, added: pembrolizumab 4 mg/kg | relative to: pretreatment baseline | change in tumour uptake | 0.47 ± 0.41 %ID/cc
